Assay results of several laboratories.
Parts stem from different laboratories: compare values within a part only.

Study 1
Target: Prothrombin, mature alpha-thrombin (F2, Homo sapiens, UniProt P00734)
Method: aptamer microarray, sandwich
Form: DNA with 2'F-ANA
Matrix: in vitro
Concentration: 200 nM
Notes: whole 15-mer aptamer, many near background
Together with: Cy3 exosite-II aptamer, 400 nM
Direction: higher = stronger binding
Oligonucleotide: GGTTGGTGTGGTTGG
`2'F-ANA at 1 3 5 6 7 8 11 13 14 15` — result for “mean fluorescence intensity”: 49.3 a.u.
`2'F-ANA at 1 4 6 7 8 10 11 13 14`: “mean fluorescence intensity” 61.4 a.u.
For `2'F-ANA at 4 5 6 7 8 9 12 13`, “mean fluorescence intensity” read 89.6 a.u.
`2'F-ANA at 5 8 11 13 14` — result for “mean fluorescence intensity”: 53.1 a.u.
For `2'F-ANA at 1 2 3 4 9 11 12 15`, “mean fluorescence intensity” read 258 a.u.
`2'F-ANA at 1 2 5 6 7 8 9 10 11 13 15`: “mean fluorescence intensity” 50.8 a.u.
Under “mean fluorescence intensity”, `2'F-ANA at 2 3 7 11 14` is recorded as 465 a.u.
For `2'F-ANA at 1 2 3 6 7 8 10 12 13 15`, “mean fluorescence intensity” read 99 a.u.
For `2'F-ANA at 2 5 8 9 10 13`, “mean fluorescence intensity” read 45.4 a.u.
`2'F-ANA at 2 4 6 8 9 10 11 12 13 14` — result for “mean fluorescence intensity”: 59.2 a.u.
Under “mean fluorescence intensity”, `2'F-ANA at 1 2 3 4 6 7 9 10 13 14` is recorded as 54.7 a.u.
`2'F-ANA at 1 2 4 5 6 9 10 13`: “mean fluorescence intensity” 56.8 a.u.
Under “mean fluorescence intensity”, `2'F-ANA at 3 7 8 9 11` is recorded as 1250 a.u.
`2'F-ANA at 1 2 3 5 8 10 11 13 14 15` — result for “mean fluorescence intensity”: 48.1 a.u.
For `2'F-ANA at 1 2 3 5 7 8 9 15`, “mean fluorescence intensity” read 70 a.u.
For `2'F-ANA at 1 5 6 9 10 12 14 15`, “mean fluorescence intensity” read 44.6 a.u.

Study 2
Target: RNA binding protein fox-1 homolog 2, RRM domain, GST-SBP tag (RBFOX2, Homo sapiens, UniProt O43251-10, residues 100-194)
Method: RNA Bind-n-Seq
Form: RNA
Matrix: in vitro
Concentration: 365 nM
Notes: natural RNA segment, single round, ends assumed
Baseline: no-protein control
Direction: higher = stronger binding
Shared flanks, not repeated: GGGAGUUCUACAGUCCGACGAUC … UGGAAUUCUCGGGUGCCAA
Residues (chain): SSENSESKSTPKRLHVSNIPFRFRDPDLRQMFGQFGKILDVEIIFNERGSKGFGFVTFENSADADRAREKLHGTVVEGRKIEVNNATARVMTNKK
Under “RBNS enrichment (R)”, `AGAGAAAAUGAGGAAGAAGCAAAAGUGGAAACCCCUGAUAAGCCAUCAGAUCUUGUGAAACUUAUUCACUAUCACAAGAAUAGCAUGGGAAAGACUGGCCCCCAUGAUUC` is recorded as 0.44.
`GGCUGGCUGGGGACUUUCCCCCCACCUGUCCCCUCCUCCUUUCCCCCCUCUUGAAGAAGAUGGGCAGAGGAGUGACAGCCGAAUGACAGCCGGCAGCAACUGGAAUGGCA`: “RBNS enrichment (R)” 0.925.
`GUCUAGGACAACAGUGCCCGGCCUUGCACCUACUUGCCAGUUCUGCUUUGCCCAGCCUUGCUUUGGACCAGCUCUGCUACGUCUCCAGGGAAACCAAGCUUGGGCCUUGC` — result for “RBNS enrichment (R)”: 0.458.
`UUCCGAGCUGGCGGACUGCCCAGGGGCCAUCAGAGGAUGGUGGUGCUGCUGCUGAUCCGGGGACCGCUGUCUUCCCUCCCAUACGCCUUUCAUCCCUCCUUCUAGGGCCU` — result for “RBNS enrichment (R)”: 0.468.
For `UCUUAGAACCAAGGGCCUCAUUAUGGUCACUCACAGCUCAGUUAUGGUCUUGCCCCAGCUGGCCCUGGCACAGGAGUUCUCUUACCUGGCUGGUGAGUGGCCUGUGUUAG`, “RBNS enrichment (R)” read 0.307.
Under “RBNS enrichment (R)”, `UCUGGGCUGUGAAGGCAGUUGCCACUGUUAUGCAGUGGCUGCUUUUGAGGGACGCACUGUGAAGAAUGAGAAGGGAAAAGCAAGAUUAUCCUUGUGAAAUUCUGCUGAUU` is recorded as 0.273.
Under “RBNS enrichment (R)”, `AAAUAUAUAUGGACUUAGUUUUUGAACGGAGUCAUUAUUCCUCUAAGGUGGUUCGCUUUGAGGUGGUCUGAAGCCAAGGCCUCGCGGAGCUUCUUUGUGUGUCACCUUGC` is recorded as 0.475.
For `CCAGAAUCACCAGACACCUCCAUGGCUCCAGCUAUGGGAACAGCUGCAUUGGGGCUGCCUUUCUGUUUGGCUUAGGAACUUCUGUGCUUCUUGUGGCUCCACUCGCGAGG`, “RBNS enrichment (R)” read 0.452.
Under “RBNS enrichment (R)”, `AAAGAUUGAUGAUAGAUGAAUAAACAGAUUUGUGGCCUCUGGUAAAGAAAUCCAGCCAAGUUCCUCUGUCCAAAUUUUUAAGUGCCCUUUGCAAGCUAAUCUAUUUGGCA` is recorded as 0.739.
Under “RBNS enrichment (R)”, `CAUCCCCACCCCAGCUGUUACCCAGCCCGGGGCAGGUGCAGCCCUUCCUCCCUGUCUCUGCAUCUGACUCUCUUUUGAGGUCCCUGUAUGUCUACCUCUGACUUCUGUGG` is recorded as 0.532.
Under “RBNS enrichment (R)”, `UCCAGUAAUGAAAGCAGCACCAUAUCCUAAUCUAAUGUCAGCUUCGAGAAUGAAGACUGCAGUCAGGAUCAAAUCAAGUCACAGAAGCCAUAUUCAUGCAGGUGCUAACC` is recorded as 0.897.
For `UCCUUCACCCUGACAGUUUAACUUCAGCGUUUCUCUGUGCAGUUGCGGUCACCAUGGGUGAGCACUGUCUGUGCACGUGCCAGGGAGGAGAUGGCUGGGACCACUGCACA`, “RBNS enrichment (R)” read 1.1.

Study 3
Target: Interferon regulatory factor 7, full length, phosphomimetic (IRF7, Homo sapiens, UniProt Q92985, residues 1-503, S471D/S472D/S475D/S476D/S477D/S483D/S484D/S487D)
Method: protein-binding microarray
Form: double-stranded DNA, one strand shown
Matrix: in vitro
Concentration: 2200 nM top
Notes: 60-bp whole probe
Together with: salmon DNA 0.4 mg/ml
Baseline: random background probes
Direction: higher = stronger binding
Shared flanks, not repeated: GCCTAGCAC … GTCTTGATTCGCTTGACGCTGCTG
Target sequence (chain): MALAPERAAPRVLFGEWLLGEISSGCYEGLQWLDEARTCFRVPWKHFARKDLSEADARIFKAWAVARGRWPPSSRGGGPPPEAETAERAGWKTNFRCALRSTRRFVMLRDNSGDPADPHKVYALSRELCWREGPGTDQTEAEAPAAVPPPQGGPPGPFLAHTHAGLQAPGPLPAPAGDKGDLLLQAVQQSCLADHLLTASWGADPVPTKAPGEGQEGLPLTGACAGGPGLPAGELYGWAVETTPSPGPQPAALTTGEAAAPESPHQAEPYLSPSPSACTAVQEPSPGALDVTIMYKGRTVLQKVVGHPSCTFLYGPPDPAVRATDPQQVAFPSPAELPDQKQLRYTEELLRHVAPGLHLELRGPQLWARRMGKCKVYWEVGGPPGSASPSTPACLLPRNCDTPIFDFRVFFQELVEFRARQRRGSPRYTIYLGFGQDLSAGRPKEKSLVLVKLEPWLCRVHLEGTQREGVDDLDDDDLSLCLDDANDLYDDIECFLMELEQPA
`GACGGTATCCTTTTCGTGACGTGCTAG`: “fitted relative affinity” 1.4 z-score.
`ATTTTGAGGTGGAGAGATAAGTGCTAG`: “fitted relative affinity” -0.247 z-score.
`TCATCTTTGCTTCACCCACTGTGCTAG` — result for “fitted relative affinity”: 2.02 z-score.
Under “fitted relative affinity”, `TCAATTTTTTTTCTAACACTGTGCTAG` is recorded as 0.654 z-score.
`GACTGACTGCTTTTCCTGACGTGCTAG` — result for “fitted relative affinity”: 1.2 z-score.
For `GACGGTATCGGGTTTCGGGACGTGCTA`, “fitted relative affinity” read 1.76 z-score.
Under “fitted relative affinity”, `GACGGTTTCGGTTCCGGCACGTGCTAG` is recorded as 11.1 z-score.
`TTCCCTTTTAAGTTCTCTGAGTGCTAG` — result for “fitted relative affinity”: 3.62 z-score.
Under “fitted relative affinity”, `TTAGTTATCAGTCTCGATTAGTGCTAG` is recorded as 0.857 z-score.
`CTGGAGGTTGGGCAAGGCCCGTGCTAG`: “fitted relative affinity” -1.62 z-score.
Under “fitted relative affinity”, `GCCCCTCTCCTCTCAGGAGCTGTGCTA` is recorded as 0.00704 z-score.
Under “fitted relative affinity”, `GACGGTTGCCTTCTCCTGACGTGCTAG` is recorded as 0.768 z-score.
`TTAGAACTGAGACGGGATTAGTGCTAG`: “fitted relative affinity” -0.713 z-score.
For `GGTCTTCTGGGCTGTTTGGTCGTGCTA`, “fitted relative affinity” read 0.00602 z-score.
For `GACGATTTCGGGTTTCGAGATGTGCTA`, “fitted relative affinity” read 5.42 z-score.
For `GTAGGACTGGACTTTCGGTTAGTGCTA`, “fitted relative affinity” read 4.62 z-score.
Under “fitted relative affinity”, `TTAGATCTCAGACTGGCTTAGTGCTAG` is recorded as -0.11 z-score.
`TTAGATTCCGGTTTCGGTTAGTGCTAG`: “fitted relative affinity” 8.27 z-score.
`GTCACATTGTGCAATCTTAATGTGCTA` — result for “fitted relative affinity”: 0.447 z-score.
For `TTAGGTATCGAGTTTCGGTTAGTGCTA`, “fitted relative affinity” read 5.05 z-score.

Study 4
Target: Histone acetyltransferase KAT6A, winged helix 1, GST fusion (KAT6A, Homo sapiens, UniProt Q92794, residues 1-85)
Method: protein binding microarray
Form: double-stranded DNA, one strand shown
Matrix: in vitro
Concentration: not given
Notes: 8-mer, flanks averaged, mean of 2 arrays, mostly near background
Baseline: not given
Direction: higher = stronger binding
Residues (chain): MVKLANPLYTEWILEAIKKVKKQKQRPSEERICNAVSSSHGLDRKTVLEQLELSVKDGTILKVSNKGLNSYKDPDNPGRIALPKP
`AGGTGTTA` has an E-score of -0.206.
The E-score of `AGAACTGG` is reported as -0.212.
`GGAGGACA` gave an E-score of -0.0608.
The E-score of `CAGCTCCG` is reported as 0.111.
The E-score of `AGCTTCAC` is reported as -0.184.
`GCCCTACC` gave an E-score of 0.0188.
With `GCACAGAA` the E-score was -0.0594.
For `ATTGGAGC`, the E-score was -0.181.
`AGTTCGTG` has an E-score of -0.21.
The E-score of `AGCGGTCG` is reported as 0.198.
`ATCGACCG` has an E-score of 0.164.
The E-score of `GGTTTCAA` is reported as 0.0126.
The E-score of `ACTATGCG` is reported as 0.219.
The E-score of `GCAAGAAC` is reported as -0.0935.
The E-score of `GTCATGTA` is reported as 0.00194.
For `GAACACAC`, the E-score was -0.00312.
`AGGTATTC` has an E-score of -0.139.
`ACACAGCT` has an E-score of -0.281.
`CCGGGGTA` gave an E-score of 0.193.
The E-score of `TGCAGCAA` is reported as -0.224.
With `ACTACTAG` the E-score was 0.0553.

Some of these lines once more (study 3):
Under “fitted relative affinity”, `GCCCCTCTCCTCTCAGGAGCTGTGCTA` is recorded as 0.00704 z-score.
`TTCCCTTTTAAGTTCTCTGAGTGCTAG` — result for “fitted relative affinity”: 3.62 z-score.
For `TTAGGTATCGAGTTTCGGTTAGTGCTA`, “fitted relative affinity” read 5.05 z-score.
For `GGTCTTCTGGGCTGTTTGGTCGTGCTA`, “fitted relative affinity” read 0.00602 z-score.
`GACTGACTGCTTTTCCTGACGTGCTAG` — result for “fitted relative affinity”: 1.2 z-score.
Under “fitted relative affinity”, `TCAATTTTTTTTCTAACACTGTGCTAG` is recorded as 0.654 z-score.
For `GACGGTATCGGGTTTCGGGACGTGCTA`, “fitted relative affinity” read 1.76 z-score.
`GACGGTATCCTTTTCGTGACGTGCTAG`: “fitted relative affinity” 1.4 z-score.
For `GTAGGACTGGACTTTCGGTTAGTGCTA`, “fitted relative affinity” read 4.62 z-score.
`TTAGATTCCGGTTTCGGTTAGTGCTAG`: “fitted relative affinity” 8.27 z-score.
